Earlier results as cited in several papers.
Numbered parts are unrelated; values within a part may stem from several laboratories. Numbers after ± are the reported error.
Sequence of UniProt O42275 (whole entry, looked up): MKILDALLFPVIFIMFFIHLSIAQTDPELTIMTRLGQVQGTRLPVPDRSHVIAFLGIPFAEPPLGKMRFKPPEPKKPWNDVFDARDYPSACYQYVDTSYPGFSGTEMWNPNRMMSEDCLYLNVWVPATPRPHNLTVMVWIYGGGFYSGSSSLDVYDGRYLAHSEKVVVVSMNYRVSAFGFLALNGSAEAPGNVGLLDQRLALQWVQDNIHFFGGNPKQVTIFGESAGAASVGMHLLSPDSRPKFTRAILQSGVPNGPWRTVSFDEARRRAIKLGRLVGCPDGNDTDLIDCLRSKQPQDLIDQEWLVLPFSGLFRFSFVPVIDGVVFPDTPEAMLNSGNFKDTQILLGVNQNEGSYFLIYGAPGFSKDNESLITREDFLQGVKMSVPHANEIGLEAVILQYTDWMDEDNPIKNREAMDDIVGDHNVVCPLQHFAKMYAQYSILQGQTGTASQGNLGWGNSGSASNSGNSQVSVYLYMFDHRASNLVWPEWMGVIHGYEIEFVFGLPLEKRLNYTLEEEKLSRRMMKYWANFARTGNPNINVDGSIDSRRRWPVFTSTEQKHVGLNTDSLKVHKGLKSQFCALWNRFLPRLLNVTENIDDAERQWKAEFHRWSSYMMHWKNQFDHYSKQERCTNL

Block 1
Target: HLA class I histocompatibility antigen, A alpha chain, allele A*26:03 (Homo sapiens, UniProt P04439)
Effect on: peptide-MHC binding
Form: peptide
Molecule | IC50 [µM]
IYWLIFWRF | > 20
SYLIRALTL | > 20
GTEEIKSLY | > 20
GLAEKPNDY | > 20
IYTTNDNNY | > 20
ETWVETWAF | 0.381
RHDITGFIL | > 20
LTFLHTLYK | > 20
IHLDKGGQF | > 20
AKYEICLEK | > 20
DTWHGFKNM | 0.011
VYSFDESSF | 1.42
YMGLVKKAK | > 20
RIGGVLIFR | > 20
SHEQGDIAL | > 20
YQRALHTSI | > 20
ESIDDAAGE | > 20
LYNTVAVLY | 20
AEILSGRVI | > 20
AEALLADGL | > 20
YERGNIIIF | > 20
EKLKSLFNTV | > 20
IATLYCVHQR | > 20
NLPSKPVWL | > 20
IFDDLQGSL | > 20

Further values, each from its own experiment
GGPS1: Geranylgeranyl pyrophosphate synthase (GGPS1, Homo sapiens, UniProt O95749)
Sequence of UniProt O95749 (whole entry, looked up): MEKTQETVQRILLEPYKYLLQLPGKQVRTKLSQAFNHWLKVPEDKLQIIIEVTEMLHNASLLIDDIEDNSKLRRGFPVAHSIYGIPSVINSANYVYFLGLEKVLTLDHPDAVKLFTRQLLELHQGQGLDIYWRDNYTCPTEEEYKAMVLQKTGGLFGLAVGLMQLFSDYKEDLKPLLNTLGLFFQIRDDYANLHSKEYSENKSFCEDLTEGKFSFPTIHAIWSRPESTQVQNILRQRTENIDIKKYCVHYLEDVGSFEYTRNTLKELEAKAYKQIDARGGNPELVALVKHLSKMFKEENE
D(4) dopamine receptor: D(4) dopamine receptor (Rattus norvegicus, UniProt P30729)
Sequence of UniProt P30729 (whole entry, looked up): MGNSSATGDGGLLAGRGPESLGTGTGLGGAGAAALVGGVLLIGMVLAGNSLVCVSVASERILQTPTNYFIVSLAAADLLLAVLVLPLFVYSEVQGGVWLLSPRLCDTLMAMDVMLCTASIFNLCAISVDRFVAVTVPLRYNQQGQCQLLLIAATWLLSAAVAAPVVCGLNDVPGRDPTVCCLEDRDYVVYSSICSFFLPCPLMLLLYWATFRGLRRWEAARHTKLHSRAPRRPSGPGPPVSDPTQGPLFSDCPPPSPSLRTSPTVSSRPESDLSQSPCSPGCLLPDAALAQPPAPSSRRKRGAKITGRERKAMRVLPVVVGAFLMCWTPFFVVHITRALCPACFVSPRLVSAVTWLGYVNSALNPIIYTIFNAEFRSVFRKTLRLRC
SMILES | target or system | assay | system | setting | how to read | quantity | result
O=S(=O)(O)C(F)(F)C(F)(F)C(F)(F)C(F)(F)C(F)(F)C(F)(F)C(F)(F)C(F)(F)C(F)(F)C(F)(F)F |  |  | human liver spheroids |  |  | top non-cytotoxic concentration | 100 µM
CC(C)=CCCC(C)=CCn1cc(C=C(P(=O)(O)O)P(=O)(O)O)nn1 | GGPS1 |  |  |  |  | IC50 | 2.7 ± 1.6 µM
CCc1cc(O)cc2c(/C=N/NC(=N)NCCc3ccc(Cl)cc3)c[nH]c12 | RXFP4 | agonist |  |  |  | EC50 | 0.002 µM
COc1cc(Cl)cc(CC(=O)Nc2cnccc2C)c1 | main protease (Mpro) |  |  | 50 µM |  | inhibition | 48.3%
O=C1c2c(O)cc(O)cc2OC(c2ccc(O)c(O)c2)C1O (centres unmarked) | ache (Electrophorus electricus, UniProt O42275) |  |  |  |  | Ki | 0.0167 µM
O=c1ccc2ncc(=O)n3c2n1C[C@H]3CN1CCC(NCc2cc3c(cn2)OCCC3)CC1 |  |  | urine plus faeces | intravenous | relative to: dose | dose eliminated by metabolism | ~19%
O=c1c(O)c(-c2ccc(O[C@@H]3O[C@H](CO)[C@@H](O)[C@H](O)[C@H]3O)c(O)c2)oc2cc(O)cc(O)c12 |  | FRAP |  | concentration not given |  | ferric reducing ability | 4.8 trolox equivalents
CNC(=O)Oc1ccccc1OC(C)C |  |  | mouse |  |  | LD50 | 24 mg/kg
C[C@@H]1O[C@@H](O[C@H]2[C@H](Oc3cc(O)c4c(=O)cc(-c5ccc(O)cc5)oc4c3)O[C@H](CO)[C@@H](O)[C@@H]2O)[C@H](O)[C@H](O)[C@H]1O | 3CL protease | enzyme activity, inhibitor |  |  |  | IC50 | 27 µM
O=C(Nc1ccc(N(Cc2ccsc2)C(=O)Cn2nnc3ccccc32)cc1)C1CC1 | main protease (Mpro) |  |  | 20 µM |  | inhibition | 69%
COc1ccc(-c2cc(=O)c3c(O)c(OC)c(O[C@@H]4O[C@H](CO[C@@H]5O[C@@H](C)[C@H](O)[C@@H](O)[C@H]5O)[C@@H](O)[C@H](O)[C@H]4O)cc3o2)cc1 | 3CL protease | enzyme activity, inhibitor |  |  |  | IC50 | 38 µM
Cc1ccnc2c1NC(=O)c1cccnc1N2C1CC1 | HIV-1 reverse transcriptase V179D |  |  | cell-based | relative to: mutant over wild type | IC50 fold change | 4.6 fold
CCOC(=O)C1=C[C@@H](OC(CC)CC)[C@H](NC(C)=O)[C@@H](N)C1 |  |  | rats | 10 mg/kg, single dose |  | oral bioavailability | 35%
O=S(=O)(O)C(F)(F)C(F)(F)C(F)(F)C(F)(F)F |  |  | human liver spheroids |  |  | top non-cytotoxic concentration | 100 µM
OCc1ccccc1 | alcohol dehydrogenase 2 Saccharomyces cerevisiae | enzyme activity, substrate |  |  |  | kcat/Km | 38 M⁻¹ s⁻¹
c1c[nH]cn1 | sperm whale metmyoglobin H64Q |  |  |  |  | apparent dissociation rate constant | 0.9 s⁻¹
CC(C)Oc1cccnc1N(C)C1CCN(Cc2ccc(I)cc2)CC1 | D(4) dopamine receptor | binding |  |  |  | Ki | 0.00027 ± 0.0001 µM
CCC(CC)CSc1ccccc1OC(=O)NC | Anopheles gambiae AChE |  |  |  |  | IC50 | 0.104 µM
CC(C)(O/N=C(\C(=O)N[C@@H]1C(=O)N2C(C(=O)[O-])=C(C[N+]3(CCNC(=O)c4ccc(O)c(O)c4Cl)CCCC3)CS[C@H]12)c1csc(N)n1)C(=O)O | VIM-1 | hydrolysis by enzyme, substrate |  |  |  | kcat | 1.17 s⁻¹
CCC1CCN(C(=O)C(CCCN=C(N)N)NS(=O)(=O)c2cccc3c(N(C)C)cccc23)CC1 (centres unmarked) | thrombin |  |  |  |  | Ki | 0.15 µM
CCCCCCCCCCCCCC(=O)OCC1OC(n2ccc(N)nc2=O)CS1 (centres unmarked) | HIV |  |  | concentration not given, cell-free virus, at least | relative to: lamivudine | anti-HIV activity fold | 16 to 36 fold
S=C=NCCc1ccccc1 | CYP2E1 | inhibitor |  |  |  | Ki | 1 µM
C=C[C@@H]1C[C@]1(NC(=O)[C@@H]1C[C@@H]2CN1C(=O)[C@H](C(C)(C)C)NC(=O)O[C@@H]1C[C@H]1CCCCCc1nc3ccc(OC)cc3nc1O2)C(=O)NS(=O)(=O)C1CC1 | human CYP3A4 | inhibitor |  | together with: midazolam substrate |  | IC50 | 73 µM
c1ccc(-c2ncc(CN3CCN(c4ncccn4)CC3)[nH]2)cc1 | D(4) dopamine receptor | binding |  |  |  | Ki | 0.0003 ± 4e-05 µM
CC(C)=CCCC(C)=CCn1cc(C2CC2(P(=O)(O)O)P(=O)(O)O)nn1 (centres unmarked) | GGPS1 |  |  |  |  | IC50 | 1.6 ± 0.7 µM

Repeated from above (further values, each from its own experiment):
SMILES | target or system | assay | system | setting | how to read | quantity | result
CC(C)(O/N=C(\C(=O)N[C@@H]1C(=O)N2C(C(=O)[O-])=C(C[N+]3(CCNC(=O)c4ccc(O)c(O)c4Cl)CCCC3)CS[C@H]12)c1csc(N)n1)C(=O)O | VIM-1 | hydrolysis by enzyme, substrate |  |  |  | kcat | 1.17 s⁻¹
O=C(Nc1ccc(N(Cc2ccsc2)C(=O)Cn2nnc3ccccc32)cc1)C1CC1 | main protease (Mpro) |  |  | 20 µM |  | inhibition | 69%
c1c[nH]cn1 | sperm whale metmyoglobin H64Q |  |  |  |  | apparent dissociation rate constant | 0.9 s⁻¹
CCc1cc(O)cc2c(/C=N/NC(=N)NCCc3ccc(Cl)cc3)c[nH]c12 | RXFP4 | agonist |  |  |  | EC50 | 0.002 µM
CCCCCCCCCCCCCC(=O)OCC1OC(n2ccc(N)nc2=O)CS1 (centres unmarked) | HIV |  |  | concentration not given, cell-free virus, at least | relative to: lamivudine | anti-HIV activity fold | 16 to 36 fold
C=C[C@@H]1C[C@]1(NC(=O)[C@@H]1C[C@@H]2CN1C(=O)[C@H](C(C)(C)C)NC(=O)O[C@@H]1C[C@H]1CCCCCc1nc3ccc(OC)cc3nc1O2)C(=O)NS(=O)(=O)C1CC1 | human CYP3A4 | inhibitor |  | together with: midazolam substrate |  | IC50 | 73 µM
O=S(=O)(O)C(F)(F)C(F)(F)C(F)(F)C(F)(F)C(F)(F)C(F)(F)C(F)(F)C(F)(F)C(F)(F)C(F)(F)F |  |  | human liver spheroids |  |  | top non-cytotoxic concentration | 100 µM
